# Measured values pooled from the literature.
# Each numbered part is a random draw from the data of one study; scales do not carry over between parts. Changes are numbered by the printed parent chain.

# Study 1
# Target: UDP-N-acetylglucosamine--peptide N-acetylglucosaminyltransferase 110 kDa subunit (OGT, Homo sapiens, UniProt O15294)
# Chain of UniProt O15294 (whole entry, looked up): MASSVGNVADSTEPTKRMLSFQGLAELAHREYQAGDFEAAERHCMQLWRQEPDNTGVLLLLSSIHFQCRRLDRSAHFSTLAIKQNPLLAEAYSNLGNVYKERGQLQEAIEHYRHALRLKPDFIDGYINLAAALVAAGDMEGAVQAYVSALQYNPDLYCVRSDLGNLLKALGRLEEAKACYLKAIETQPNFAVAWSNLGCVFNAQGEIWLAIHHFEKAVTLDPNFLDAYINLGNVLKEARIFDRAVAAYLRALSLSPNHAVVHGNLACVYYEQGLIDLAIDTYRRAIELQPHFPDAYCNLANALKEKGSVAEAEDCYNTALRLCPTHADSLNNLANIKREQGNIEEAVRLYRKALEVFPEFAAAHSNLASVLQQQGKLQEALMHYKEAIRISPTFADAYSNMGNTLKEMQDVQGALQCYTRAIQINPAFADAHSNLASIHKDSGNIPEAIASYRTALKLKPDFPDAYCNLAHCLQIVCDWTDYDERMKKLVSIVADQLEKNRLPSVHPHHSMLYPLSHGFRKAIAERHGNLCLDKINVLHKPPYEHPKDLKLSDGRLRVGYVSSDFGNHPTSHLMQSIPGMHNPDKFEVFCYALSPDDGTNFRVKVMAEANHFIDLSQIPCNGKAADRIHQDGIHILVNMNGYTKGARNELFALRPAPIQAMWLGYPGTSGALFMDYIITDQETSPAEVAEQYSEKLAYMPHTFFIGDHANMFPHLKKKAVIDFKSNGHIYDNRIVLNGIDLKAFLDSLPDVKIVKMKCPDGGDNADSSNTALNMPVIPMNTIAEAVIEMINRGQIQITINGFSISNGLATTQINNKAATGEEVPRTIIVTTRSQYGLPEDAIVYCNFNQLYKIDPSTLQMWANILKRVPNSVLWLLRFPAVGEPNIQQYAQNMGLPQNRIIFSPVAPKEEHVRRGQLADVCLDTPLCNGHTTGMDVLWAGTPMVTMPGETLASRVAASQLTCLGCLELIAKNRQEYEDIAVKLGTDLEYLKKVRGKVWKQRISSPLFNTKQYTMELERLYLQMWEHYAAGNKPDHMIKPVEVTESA
# Observed: binding
# Technique: phage display NGS
# Molecule type: peptide
# Concentration: concentration not given
# Reference: input library
Molecule,enrichment fold change
TKMNHHETTSEYLH,3.1
QHAHTHKHHHALTDI,5.03
HGHRWAHPVGPHGPM,4.31
DHARHPHEGTGTSHH,6.64
YVDWGVWHKDFNMPH,2.3
WVNVPHYQVFLHEHH,6.09
HNFHYYHAQPEWSPM,3.82
AWAQWQHRTYTSHMD,2.8
STFGRYLPSYIIQYR,33.5
QVMNEHRHHMRHQIY,2.85
TYSDTNHHAHQWLLK,3.47
TSQLQPFYLIQYSHR,3.69
NNNIYWPKYQITNTL,7.21
HWQRHHMDAPFQMPY,5.04
VYSPVYQIIVNQNH,10.7
TYRHSDHPVSSFAHV,4.41
TGTKYVPMYQINPY,10.6
NTTHQVHRFKWHQHT,4.07
QNDRYLPAYVITYAR,2.49
HRASMHHVFSPHLDH,6.37
FIPYSPFYQIESSRY,1.95
SYMPVYQIDYTPAV,44
TAPFYPPAYDI,0.481
HLHRDIHNKYNSIVN,2.6
VGMNQNAYMPMYQIH,10.4

# Study 2
# Target: CCNB2, cyclin fold, Cln2 fusion (human)
# Technique: yeast growth competition, sequencing
# Sample: yeast
# Setting: weak parent motif
# Reference: not given
# Direction: higher = stronger binding
# Starting sequence: CDC6 docking peptide (human); TLKGRRLVFDNQL; partner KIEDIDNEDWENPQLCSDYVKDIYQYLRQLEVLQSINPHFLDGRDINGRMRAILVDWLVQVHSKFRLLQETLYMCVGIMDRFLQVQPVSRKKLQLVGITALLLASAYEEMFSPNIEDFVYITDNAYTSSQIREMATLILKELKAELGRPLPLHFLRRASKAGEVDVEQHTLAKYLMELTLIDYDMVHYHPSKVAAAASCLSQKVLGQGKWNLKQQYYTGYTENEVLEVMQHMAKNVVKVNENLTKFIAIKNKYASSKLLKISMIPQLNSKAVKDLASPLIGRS
Substitution,normalised enrichment score
R5S,-0.598
L2D,-0.53
N11S,-0.229
K3D,-0.355
T1H,0.033
D10S,0.449
N11G,0.195
D10C,0.861

# Study 3
# Target: inorganic phosphate, free oxyanion
# Technique: microfluidic competitive inhibition
# Sample: in vitro, cell-free expressed
# Concentration: not given
# Setting: derived from inhibition constants, unchanged parent 615000 nM
# Direction: lower = stronger binding
# Starting sequence: PafA, mature enzyme, eGFP fusion (Elizabethkingia meningoseptica, UniProt Q9KJX5); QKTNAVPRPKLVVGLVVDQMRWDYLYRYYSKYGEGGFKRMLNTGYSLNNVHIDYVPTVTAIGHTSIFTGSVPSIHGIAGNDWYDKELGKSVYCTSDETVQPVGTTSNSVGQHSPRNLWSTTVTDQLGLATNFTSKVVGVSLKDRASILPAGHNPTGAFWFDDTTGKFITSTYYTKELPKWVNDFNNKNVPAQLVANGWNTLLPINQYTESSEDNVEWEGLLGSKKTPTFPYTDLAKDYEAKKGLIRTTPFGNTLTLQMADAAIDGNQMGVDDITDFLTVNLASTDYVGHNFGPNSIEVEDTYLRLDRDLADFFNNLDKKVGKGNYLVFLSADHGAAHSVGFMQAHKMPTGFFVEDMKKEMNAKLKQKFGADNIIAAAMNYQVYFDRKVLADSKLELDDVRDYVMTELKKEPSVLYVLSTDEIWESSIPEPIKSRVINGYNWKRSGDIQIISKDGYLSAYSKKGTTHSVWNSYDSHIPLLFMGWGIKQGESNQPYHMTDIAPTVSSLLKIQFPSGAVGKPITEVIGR
Substitution,phosphate dissociation constant [µM]
P501V,604
T232G,590
L305G,668
N372G,666
Q381V,702
G197A,585
A5G,577
K442G,643
S392G,584
F158V,569
G350A,567
H112G,659
V215A,623
D401V,594
S223G,529
G88V,663
N131G,370
P7V,625
Y207G,304
Y238G,499
L117V,697
T349V,551
P190V,484
V413A,758
Y494G,549

# Further values, each from its own experiment
SMILES,cell line,test,conditions,how to read,measurement,result
C[N+]1(C)CCCC(OC(=O)C(O)(c2ccccc2)c2ccccc2)C1 (centres unmarked),mouse MPNST tumor cells,"high-content immunofluorescence imaging, item: nuclear SOX9","10 µM, 12 h, mean of 2 replicates","reference: DMSO control, higher = more nuclear SOX9",nuclear SOX9 intensity,89.5 % of DMSO

# Excerpt of the above (study 3):
Substitution,phosphate dissociation constant [µM]
K442G,643
L117V,697
G350A,567
G197A,585
A5G,577
V215A,623
N131G,370
T349V,551
